Measured values pooled from the literature.
Protocols differ between the studies behind these lines. No end group written: not given here.
B1: UBTF 1-746 (Homo sapiens, UniProt P17480); sequence looked up; chain MNGEADCPTDLEMAAPKGQDRWSQEDMLTLLECMKNNLPSNDSSKFKTTESHMDWEKVAFKDFSGDMCKLKWVEISNEVRKFRTLTELILDAQEHVKNPYKGKKLKKHPDFPKKPLTPYFRFFMEKRAKYAKLHPEMSNLDLTKILSKKYKELPEKKKMKYIQDFQREKQEFERNLARFREDHPDLIQNAKKSDIPEKPKTPQQLWYTHEKKVYLKVRPDATTKEVKDSLGKQWSQLSDKKRLKWIHKALEQRKEYEEIMRDYIQKHPELNISEEGITKSTLTKAERQLKDKFDGRPTKPPPNSYSLYCAELMANMKDVPSTERMVLCSQQWKLLSQKEKDAYHKKCDQKKKDYEVELLRFLESLPEEEQQRVLGEEKMLNINKKQATSPASKKPAQEGGKGGSEKPKRPVSAMFIFSEEKRRQLQEERPELSESELTRLLARMWNDLSEKKKAKYKAREAALKAQSERKPGGEREERGKLPESPKRAEEIWQQSVIGDYLARFKNDRVKALKAMEMTWNNMEKKEKLMWIKKAAEDQKRYERELSEMRAPPAATNSSKKMKFQGEPKKPPMNGYQKFSQELLSNGELNHLPLKERMVEIGSRWQRISQSQKEHYKKLAEEQQKQYKVHLDLWVKSLSPQDRAAYKEYISNKRKSMTKLRGPNPKSSRTTLQSKSESEEDDEEDEDDEDEDEEEEDDENGDSSEDGGDSSESSSEDESEDGDENEEDDEDEDDDEDDDEDEDNESE
B2: RAD51 (Gallus gallus, UniProt P37383); sequence looked up; chain MAMQVQFEASTDTSAEEESFGPEPISRLEQCGINANDVKKLEEAGYHTVESVAHAPKKELLNIKGISEAKADKILAEAAKLVPMGFTTATEFHQRRSEIIQITTGSKELDKLLQGGIETGSITELFGEFRTGKTQLCHTLAVTCQLPIDRGGGEGKAMYIDTEGTFRPERLLAVAERYGLSGSDVLDNVAYARGFNTDHQTQLLYQASAMMAESRYALLIVDSATALYRTDYSGRGELSARQMHLARFLRMLLRLADEFGVAVVITNQVVAQVDGAAMFAADPKKPIGGNIIAHASTTRLYLRKGRGETRICKIYDSPCLPEAEAMFAINADGVGDAKE
B3: CCS1 1-74 C27S (Saccharomyces cerevisiae, UniProt P40202); sequence looked up; chain MTTNDTYEATYAIPMHCENCVNDIKASLKNVPGINSLNFDIEQQIMSVESSVAPSTIINTLRNCGKDAIIRGAG
B4: PAGE4 A18C (Homo sapiens, UniProt O60829); Alexa 555/647 on C18, C63; sequence looked up; chain MSARVRSRSRGRGDGQECPDVVAFVAPGESQQEEPPTDNQDIEPGQEREGTPPIEERKVEGDCQEMDLEKTRSERGDGSDVKEKTPPNPKHAKTKEAGDGQP
B5: apcC (Synechocystis sp. PCC 6803, UniProt Q01950); sequence looked up; chain MRMFRITACVPSQTRIRTQRELQNTYFTKLVPYDNSFREQQRIMKMGGKIVKVELATGRPGTNAGLA
B6: UGT1A9 (Homo sapiens, UniProt O60656); chain GKLLVVPMDGSHWFTMRSVVEKLILRGHEVVVVMPEVSWQLGRSLNCTVKTYSTSYTLEDLDREFKAFAHAQWKAQVRSIYSLLMGSYNDIFDLFFSNCRSLFKDKKLVEYLKESSFDAVFLDPFDNCGLIVAKYFSLPSVVFARGILCHYLEEGAQCPAPLSYVPRILLGFSDAMTFKERVRNHIMHLEEHLLCHRFFKNALEIASEILQTPVTEYDLYSHTSIWLLRTDFVLDYPKPVMPNMIFIGGINCHQGKPLPMEFEAYINASGEHGIVVFSLGSMVSEIPEKKAMAIADALGKIPQTVLWRYTGTRPSNLANNTILVKWLPQNDLLGHPMTRAFITHAGSHGVYESICNGVPMVMMPLFGDQMDNAKRMETKGAGVTLNVLEMTSEDLENALKAVINDKSYKENIMRLSSLHKDRPVEPLDLAVFWVEFVMRHKGAPHLRPAAHDLTWYQYHSLDVIGFLLAVVLTVAFITFKCCAYGYRKCLGKKGRVKKAHKSKTH
B7: gyrB (Bacillus subtilis, UniProt P05652); sequence looked up; chain MEQQQNSYDENQIQVLEGLEAVRKRPGMYIGSTNSKGLHHLVWEIVDNSIDEALAGYCTDINIQIEKDNSITVVDNGRGIPVGIHEKMGRPAVEVIMTVLHAGGKFDGSGYKVSGGLHGVGASVVNALSTELDVTVHRDGKIHRQTYKRGVPVTDLEIIGETDHTGTTTHFVPDPEIFSETTEYDYDLLANRVRELAFLTKGVNITIEDKREGQERKNEYHYEGGIKSYVEYLNRSKEVVHEEPIYIEGEKDGITVEVALQYNDSYTSNIYSFTNNINTYEGGTHEAGFKTGLTRVINDYARKKGLIKENDPNLSGDDVREGLTAIISIKHPDPQFEGQTKTKLGNSEARTITDTLFSTAMETFMLENPDAAKKIVDKGLMAARARMAAKKARELTRRKSALEISNLPGKLADCSSKDPSISELYIVEGDSAGGSAKQGRDRHFQAILPLRGKILNVEKARLDKILSNNEVRSMITALGTGIGEDFNLEKARYHKVVIMTDADVDGAHIRTLLLTFFYRYMRQIIENGYVYIAQPPLYKVQQGKRVEYAYNDKELEELLKTLPQTPKPGLQRYKGLGEMNATQLWETTMDPSSRTLLQVTLEDAMDADETFEMLMGDKVEPRRNFIEANARYVKNLDI
B8: ARF1 GTP-bound (Saccharomyces cerevisiae, UniProt P11076); myristoylated; sequence looked up; chain MGLFASKLFSNLFGNKEMRILMVGLDGAGKTTVLYKLKLGEVITTIPTIGFNVETVQYKNISFTVWDVGGQDRIRSLWRHYYRNTEGVIFVVDSNDRSRIGEAREVMQRMLNEDELRNAAWLVFANKQDLPEAMSAAEITEKLGLHSIRNRPWFIQATCATSGEGLYEGLEWLSNSLKNST
B9: MYL2 (Homo sapiens, UniProt P10916); sequence looked up; chain MAPKKAKKRAGGANSNVFSMFEQTQIQEFKEAFTIMDQNRDGFIDKNDLRDTFAALGRVNVKNEEIDEMIKEAPGPINFTVFLTMFGEKLKGADPEETILNAFKVFDPEGKGVLKADYVREMLTTQAERFSKEEVDQMFAAFPPDVTGNLDYKNLVHIITHGEEKD
B10: gp20 R295A/K296A (bacteriophage T4, UniProt P13334); sequence looked up; chain MKFNVLSLFAPWAKMDERNFKDQEKEDLVSITAPKLDDGAREFEVSSNEAASPYNAAFQTIFGSYEPGMKTTRELIDTYRNLMNNYEVDNAVSEIVSDAIVYEDDTEVVALNLDKSKFSPKIKNMMLDEFSDVLNHLSFQRKGSDHFRRWYVDSRIFFHKIIDPKRPKEGIKELRRLDPRQVQYVREIITETEAGTKIVKGYKEYFIYDTAHESYACDGRMYEAGTKIKIPKAAVVYAHSGLVDCCGKNIIGYLHRAVKPANQLKLLEDAVVIYRITRAPDRRVWYVDTGNMPAAAAAEHMQHVMNTMKNRVVYDASTGKIKNQQHNMSMTEDYWLQRRDGKAVTEVDTLPGADNTGNMEDIRWFRQALYMALRVPLSRIPQDQQGGVMFDSGTSITRDELTFAKFIRELQHKFEEVFLDPLKTNLLLKGIITEDEWNDEINNIKIEFHRDSYFAELKEAEILERRINMLTMAEPFIGKYISHRTAMKDILQMTDEEIEQEAKQIEEESKEARFQDPDQEQEDF
Chain of UniProt Q8WUM4 (whole entry, looked up): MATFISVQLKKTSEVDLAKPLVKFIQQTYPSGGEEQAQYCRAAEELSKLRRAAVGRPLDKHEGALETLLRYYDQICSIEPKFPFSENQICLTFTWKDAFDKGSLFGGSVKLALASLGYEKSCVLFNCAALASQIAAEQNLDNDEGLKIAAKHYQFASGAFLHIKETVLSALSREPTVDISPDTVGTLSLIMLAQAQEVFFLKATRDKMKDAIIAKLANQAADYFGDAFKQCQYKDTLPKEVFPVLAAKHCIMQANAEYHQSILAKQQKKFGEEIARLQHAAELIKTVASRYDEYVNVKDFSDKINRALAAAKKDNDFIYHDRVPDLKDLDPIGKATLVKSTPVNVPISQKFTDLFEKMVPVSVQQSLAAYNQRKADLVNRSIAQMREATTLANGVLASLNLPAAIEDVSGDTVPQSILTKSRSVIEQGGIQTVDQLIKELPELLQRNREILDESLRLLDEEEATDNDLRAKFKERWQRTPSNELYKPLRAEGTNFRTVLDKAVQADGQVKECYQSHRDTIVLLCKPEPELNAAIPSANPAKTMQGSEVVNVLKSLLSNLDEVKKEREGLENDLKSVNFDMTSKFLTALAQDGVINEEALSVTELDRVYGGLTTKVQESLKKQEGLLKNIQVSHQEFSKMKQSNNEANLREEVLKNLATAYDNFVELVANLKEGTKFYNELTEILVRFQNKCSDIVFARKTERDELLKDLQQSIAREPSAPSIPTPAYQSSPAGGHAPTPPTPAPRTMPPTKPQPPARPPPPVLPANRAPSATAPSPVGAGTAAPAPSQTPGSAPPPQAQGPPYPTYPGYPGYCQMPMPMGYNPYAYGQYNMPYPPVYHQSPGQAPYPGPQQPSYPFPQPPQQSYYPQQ
Chain of UniProt P20702 (whole entry, looked up): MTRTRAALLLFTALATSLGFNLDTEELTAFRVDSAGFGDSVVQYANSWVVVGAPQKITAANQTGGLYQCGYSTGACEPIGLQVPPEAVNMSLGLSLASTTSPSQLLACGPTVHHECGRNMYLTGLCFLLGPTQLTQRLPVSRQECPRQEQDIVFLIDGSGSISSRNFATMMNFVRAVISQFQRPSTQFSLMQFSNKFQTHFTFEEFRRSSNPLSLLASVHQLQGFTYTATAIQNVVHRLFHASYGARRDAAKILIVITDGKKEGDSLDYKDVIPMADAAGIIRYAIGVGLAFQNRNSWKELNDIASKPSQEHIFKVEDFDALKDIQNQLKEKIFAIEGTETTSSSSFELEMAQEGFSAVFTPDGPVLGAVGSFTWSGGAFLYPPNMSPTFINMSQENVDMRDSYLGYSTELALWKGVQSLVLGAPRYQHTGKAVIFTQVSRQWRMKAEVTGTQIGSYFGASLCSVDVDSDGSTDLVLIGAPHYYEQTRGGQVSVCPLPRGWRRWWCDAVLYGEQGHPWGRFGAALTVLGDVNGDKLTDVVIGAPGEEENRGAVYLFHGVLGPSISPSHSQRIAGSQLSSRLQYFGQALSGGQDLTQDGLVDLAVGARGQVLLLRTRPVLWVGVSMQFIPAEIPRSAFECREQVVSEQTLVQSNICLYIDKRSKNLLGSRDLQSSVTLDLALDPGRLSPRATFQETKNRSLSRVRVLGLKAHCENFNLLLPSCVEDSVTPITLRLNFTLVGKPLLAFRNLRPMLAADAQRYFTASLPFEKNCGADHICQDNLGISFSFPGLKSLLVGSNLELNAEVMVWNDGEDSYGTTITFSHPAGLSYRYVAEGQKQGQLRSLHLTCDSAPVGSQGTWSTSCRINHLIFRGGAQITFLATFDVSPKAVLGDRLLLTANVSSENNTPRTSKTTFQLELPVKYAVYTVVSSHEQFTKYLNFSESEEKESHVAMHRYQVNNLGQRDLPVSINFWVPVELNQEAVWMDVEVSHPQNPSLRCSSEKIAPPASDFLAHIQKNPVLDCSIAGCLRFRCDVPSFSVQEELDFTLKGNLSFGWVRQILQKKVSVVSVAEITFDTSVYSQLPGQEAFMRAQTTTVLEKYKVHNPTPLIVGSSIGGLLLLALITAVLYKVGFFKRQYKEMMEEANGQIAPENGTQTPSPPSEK
Chain of UniProt Q01952 (whole entry, looked up): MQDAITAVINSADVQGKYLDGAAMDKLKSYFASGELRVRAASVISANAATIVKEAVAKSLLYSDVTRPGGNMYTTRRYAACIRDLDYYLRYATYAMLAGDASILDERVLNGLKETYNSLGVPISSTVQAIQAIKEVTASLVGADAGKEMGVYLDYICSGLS
Chain of UniProt P05653 (whole entry, unmodified, looked up): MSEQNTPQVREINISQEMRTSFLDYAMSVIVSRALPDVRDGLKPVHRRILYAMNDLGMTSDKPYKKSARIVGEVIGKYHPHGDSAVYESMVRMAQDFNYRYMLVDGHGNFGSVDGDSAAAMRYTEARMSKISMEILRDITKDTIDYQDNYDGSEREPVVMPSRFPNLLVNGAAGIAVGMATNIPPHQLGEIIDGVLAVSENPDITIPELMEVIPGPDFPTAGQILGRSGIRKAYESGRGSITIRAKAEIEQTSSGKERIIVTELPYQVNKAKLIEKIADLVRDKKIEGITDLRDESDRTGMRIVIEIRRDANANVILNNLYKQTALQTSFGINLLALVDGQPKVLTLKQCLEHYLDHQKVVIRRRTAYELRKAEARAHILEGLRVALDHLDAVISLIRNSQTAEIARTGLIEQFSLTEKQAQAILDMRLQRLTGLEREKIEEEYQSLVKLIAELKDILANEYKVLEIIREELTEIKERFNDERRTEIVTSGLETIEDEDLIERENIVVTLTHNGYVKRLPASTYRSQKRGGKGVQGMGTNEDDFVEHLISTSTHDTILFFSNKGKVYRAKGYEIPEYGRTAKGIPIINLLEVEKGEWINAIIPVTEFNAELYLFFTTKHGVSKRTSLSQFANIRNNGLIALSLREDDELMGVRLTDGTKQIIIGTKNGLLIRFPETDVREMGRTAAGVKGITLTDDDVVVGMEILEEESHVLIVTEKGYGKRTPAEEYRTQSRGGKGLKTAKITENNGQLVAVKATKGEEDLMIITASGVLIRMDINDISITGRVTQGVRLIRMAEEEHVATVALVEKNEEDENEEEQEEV
Chain of UniProt P29496 (whole entry, looked up): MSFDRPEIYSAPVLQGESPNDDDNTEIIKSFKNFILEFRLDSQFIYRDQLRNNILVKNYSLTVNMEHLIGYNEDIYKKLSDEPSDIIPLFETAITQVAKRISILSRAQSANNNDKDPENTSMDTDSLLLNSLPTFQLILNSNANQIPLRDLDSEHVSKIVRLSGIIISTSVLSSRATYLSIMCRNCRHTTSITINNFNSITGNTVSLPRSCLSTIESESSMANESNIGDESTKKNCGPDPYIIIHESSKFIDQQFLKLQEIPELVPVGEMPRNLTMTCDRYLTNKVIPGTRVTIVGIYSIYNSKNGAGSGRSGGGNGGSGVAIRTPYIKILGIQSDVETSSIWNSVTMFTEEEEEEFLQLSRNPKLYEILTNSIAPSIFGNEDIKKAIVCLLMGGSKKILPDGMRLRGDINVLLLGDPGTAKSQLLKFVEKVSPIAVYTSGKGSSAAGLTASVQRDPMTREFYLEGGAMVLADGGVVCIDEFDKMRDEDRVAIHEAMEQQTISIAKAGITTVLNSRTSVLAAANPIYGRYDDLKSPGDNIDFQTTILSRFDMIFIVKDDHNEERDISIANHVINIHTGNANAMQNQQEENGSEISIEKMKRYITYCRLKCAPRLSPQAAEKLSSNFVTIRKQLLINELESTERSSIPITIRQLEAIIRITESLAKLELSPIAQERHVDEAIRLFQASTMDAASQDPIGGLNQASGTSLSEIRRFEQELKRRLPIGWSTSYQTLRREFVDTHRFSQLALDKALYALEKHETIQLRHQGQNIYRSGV
Chain of UniProt P36046 (whole entry, looked up): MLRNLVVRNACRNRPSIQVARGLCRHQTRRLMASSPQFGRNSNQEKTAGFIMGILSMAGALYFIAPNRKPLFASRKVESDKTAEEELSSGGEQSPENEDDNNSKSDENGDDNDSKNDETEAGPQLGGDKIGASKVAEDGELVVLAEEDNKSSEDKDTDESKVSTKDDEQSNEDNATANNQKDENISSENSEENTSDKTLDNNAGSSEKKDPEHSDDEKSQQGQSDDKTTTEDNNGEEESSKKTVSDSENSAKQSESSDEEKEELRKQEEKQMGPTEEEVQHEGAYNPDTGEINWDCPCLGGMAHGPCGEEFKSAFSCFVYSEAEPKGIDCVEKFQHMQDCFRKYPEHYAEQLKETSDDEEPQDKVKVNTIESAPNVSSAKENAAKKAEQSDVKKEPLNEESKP
Chain of UniProt P02489 (whole entry, looked up): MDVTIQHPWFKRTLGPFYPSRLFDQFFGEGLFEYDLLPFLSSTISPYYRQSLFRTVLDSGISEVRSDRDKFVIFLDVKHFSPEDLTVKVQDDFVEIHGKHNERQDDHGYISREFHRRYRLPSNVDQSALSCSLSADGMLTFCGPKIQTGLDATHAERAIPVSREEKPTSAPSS

Molecule | tested on | test | test system | setting | quantity | value
MCM5 (Saccharomyces cerevisiae, UniProt P29496) | PSF1/PSF2/PSF3/SLD5 (Saccharomyces cerevisiae) | cross-linking | – | – | binding | binds
GYWALLITIADRKEFAKF (ITGB3 715-730 K716A/H722A (Homo sapiens)) | Myom1 fragment (Mus musculus) | solid-phase binding assay | peptide | – | binding | binds
B1 (UBTF 1-746) | TBP/TAF1A/TAF1B/TAF1C (Homo sapiens) | pull-down | not purified SL1 | with or without phosphatase | binding | binds
CRYAA (Homo sapiens, UniProt P02489) | CRYGC Y46D (Homo sapiens, UniProt P07315) | SEC | – | – | binding | binds
BRD1 fragment E62A/D63A/D64A (Homo sapiens) (sequence not shown) | histone H4 (Bos taurus, UniProt P62803) | pull-down | – | – | binding | binds
B2 (RAD51) | FANCD2 K361E/K369E/R399E/K400E/K404E/R407E/K974E (Gallus gallus, UniProt Q68Y81) | pull-down | – | – | binding | binds
B3 (CCS1 1-74 C27S) | MIA40 284-403, oxidized (UniProt P36046) | pull-down | – | 10 min, pH 7.0, 25 °C, NaCl 200 mM, nonreducing | binding | binds
B4 (PAGE4 A18C) | JUN (Homo sapiens, UniProt P05412) | single-molecule FRET | – | – | binding | binds
BACH1 BTB domain C34A, S-nitrosylation treated (Homo sapiens) (sequence not shown) | FBXL17/SKP1 FBXL17 310-701 (Homo sapiens) | BLI | – | apparent | binding | binds
B5 (apcC) | apcB, bilin at Cys81 (Synechocystis sp. PCC 6803, UniProt Q01952) | cross-linking | – | – | binding | binds
MSEETKENEGFTVTAEGKGQGTLSVVTMYHAKAKDQLTCNK (C3 1299-1338, C-terminal GST fusion (Homo sapiens, UniProt P01024)) | ITGAX 146-332 (Homo sapiens, UniProt P20702) | ELISA | – | with: MgCl2 1 mM | binding | binds
BACH1 fragment C122E (Homo sapiens) (sequence not shown) | FBXL17/SKP1 FBXL17 310-701 (Homo sapiens) | pull-down | – | – | binding | binds
B6 (UGT1A9) | COc1ccc(-c2oc3ccccc3c(=O)c2O)cc1 | steady-state kinetics | – | pH 7.4, 37 °C | Vmax | 0.0019 µmol/min/mg
B7 (gyrB) | gyrA heterodimer 2-821 C350L/T140C/K594C, Alexa488 and Alexa546 labels (Bacillus subtilis, UniProt P05653) | smFRET | – | pH 7.5, 37 °C, KCl 100 mM | binding | binds
B8 (ARF1 GTP-bound) | Chs5/Chs6 Chs5 1-299 K86A/H87A/K89A/R446A/K449A (Saccharomyces cerevisiae) | co-sedimentation | liposomes | with: GTP | binding | binds
B9 (MYL2) | MYH7 1-834 (Homo sapiens, UniProt P12883) | cross-linking | – | 4 µM, 20 min, pH 7.3, 25 °C, KCl 50 mM, with: ATP | binding | binds
B10 (gp20 R295A/K296A) | GFP/gp17 fusion (bacteriophage T4) | co-sedimentation | – | 30 min, NaCl 100 mM, bound relative to gp23 | binding | binds
Ac-QRAEEEDDDIKQLAAWAT (CHMP4C C-terminal peptide (Homo sapiens); N-terminal acetyl) | PDCD6IP 1-359 (Homo sapiens, UniProt Q8WUM4) | X-ray crystallography | peptide | – | binding | binds
ORAI1 fragment K85E, fluorescein label (Homo sapiens) (sequence not shown) | Stim1 fragment (Mus musculus) | fluorescence polarisation | – | – | binding | binds
